Assay results of several laboratories.
Protocols differ between the studies behind these lines. ± gives the spread as reported.

N=C(NCC[C@H](NC(=O)c1noc(-c2cc(F)ccc2F)n1)c1nc2ccccc2[nH]1)c1ccc([N+](=O)[O-])o1  IFNβ secretion (STING pathway; inhibitor, ELISA; mouse iBMDM; concentration not given, 24 h, with: diABZI 500 nM): inhibited
O=c1cc(-c2ccccc2)oc2c(Br)c(O)c(Br)c(O)c12  inhibition (bovine serum albumin; methylglyoxal-mediated glycation, fluorescence; concentration not given): 97.01 ± 0.04%
Nc1ncc(-c2cc(-c3cnn(CC(F)(F)F)c3)ncc2F)nc1C(=O)NC1CNCC(F)C1 (centres unmarked)  remaining binding (ABL2; KINOMEscan; 1 µM; baseline: DMSO control): 82%
N=C(c1ccc([N+](=O)[O-])o1)N1CCC(NC(=O)c2cc(-c3ccc(F)cc3F)on2)(c2nc3ccccc3[nH]2)CC1  TBK1 and IRF3 phosphorylation (STING pathway; inhibitor, immunoblot; mouse BMDM, wild type; 5 µM, 1 h pretreatment, with: diABZI): inhibited
C=CC(=O)Nc1cccc(Cn2ncc3cnc(Nc4cnn(CCOC)c4)nc32)c1  percent of control (HIPK3 human; binding, KINOMEscan; 100 nM; lower = stronger binding): 100%
C=CC(=O)N1[C@@H](c2ccc3c(c2)OCO3)c2[nH]c3ccccc3c2C[C@H]1C(=O)N1CCN(C)CC1  relative co-enrichment (human cyclin E1 wild type-3xFLAG:CDK2; co-IP with TMT proteomics, item: SDHB; concentration not given, P21912; baseline: wild type DMSO): 108%
NCCOc1cc(NC(=O)c2cc(OCc3cn(Cc4ccc(C(=O)O)cc4)nn3)cc(C(=O)Nc3cc(OCCN)c4ccccc4n3)n2)nc2ccccc12  ΔTm (Bcl2 G-quadruplex DNA; FRET melting; 1 µM, pH 7.4, with: 60 mM potassium): 4.2 ± 0.3 K
Cc1cn(CC(=O)N(CCNC(=O)CN(CCNC(=O)CN(CCNC(=O)CN(CCNC(=O)CN(CCNC(=O)CN(CCNC(=O)CN(CCNC(=O)CN(CCN)C(=O)Cn2cnc3c(=O)[nH]c(N)nc32)C(=O)Cn2cnc3c(N)ncnc32)C(=O)Cn2cc(C)c(=O)[nH]c2=O)C(=O)Cn2cnc3c(=O)[nH]c(N)nc32)C(=O)Cn2cc(C)c(=O)[nH]c2=O)C(=O)Cn2cnc3c(=O)[nH]c(N)nc32)C(=O)Cn2cnc3c(N)ncnc32)CC(=O)NCCN(CC(=O)NCCOCCOCC(N)=O)C(=O)Cn2cnc3c(N)ncnc32)c(=O)[nH]c1=O  ΔTm (mismatched DNA TG; duplex formation, UV melting; baseline: complementary DNA): -16.6 °C
CN(Cc1cc(C2CC2)on1)C(=O)c1cccc(-c2ccc3c(c2)CCO3)c1  reaction rate (acetyl-CoA synthetase 1 (Aspergillus fumigatus); enzyme activity, inhibitor, coupled pyrophosphate; 125 µM; higher is more activity): 0.000851 a.u.
Cc1[nH]nc2c1N=C(c1ccccc1Cl)c1cnc(N3CCOCC3)cc1N2  inhibition (KATP channel, hamster; radioligand binding; 10 µM): 4%
O=C1CC(c2ccccc2)Oc2c(Br)c(O)c(Br)c(O)c21 (centres unmarked)  inhibition (bovine serum albumin; methylglyoxal-mediated glycation, fluorescence; concentration not given): 46.3 ± 2.23%
c1ccc(-c2n[nH]cc2-c2ccnc3ccccc23)nc1  log2 fold change (orf19.3456 Candida albicans; kinase binding, MIB/MS competition; Candida albicans lysate; 1 µM; baseline: DMSO): -0.02
Cc1c(C)c2cccnc2c2ncccc12.O=[N+]([O-])[O-].O=c1c(C=NN=C([S-])Nc2ccccc2)coc2ccccc12.[Cu+2]  nicked circular DNA (supercoiled pUC19 DNA; oxidative DNA cleavage; concentration not given, superoxide dismutase 1 U, with: ascorbic acid): 100%
Cc1c[nH]c2nccc(-c3ccc(C(=O)N[C@@H]4c5c(F)cc(C(F)F)cc5C[C@@H]4O)cn3)c12  IC50 (ROCK1/2; MYPT1 phosphorylation, inhibitor, western blot): 240 nM

Repeated from above:
Cc1[nH]nc2c1N=C(c1ccccc1Cl)c1cnc(N3CCOCC3)cc1N2  inhibition (KATP channel, hamster; radioligand binding; 10 µM): 4%
C=CC(=O)N1[C@@H](c2ccc3c(c2)OCO3)c2[nH]c3ccccc3c2C[C@H]1C(=O)N1CCN(C)CC1  relative co-enrichment (human cyclin E1 wild type-3xFLAG:CDK2; co-IP with TMT proteomics, item: SDHB; concentration not given, P21912; baseline: wild type DMSO): 108%
